Experimental data collected from several papers.
Compare with care: the assays were run in different laboratories.
Cell line: T47D

Compound | test | conditions | how to read | quantity | value
CC/C=C\C/C=C\C/C=C\C/C=C\C/C=C\C/C=C\CCC(=O)Nc1ccn(C2OC(CO)C(O)C2(F)F)c(=O)n1 (centres unmarked) | – | – | – | total growth inhibition concentration | 17.6 µM
Cc1ccc(-c2nc(-c3cccnc3)[nH]c2-c2ccc(C)cc2)cc1 | cell growth or viability, SRB | 48 h | – | IC50 | > 100 µM
COc1ccc(C=C2SC(N3N=C(c4cccs4)CC3c3ccc(F)cc3)=NC2=O)cc1 (centres unmarked) | PI flow cytometry | concentration not given, 24 h | – | cells in %S phase | 29%
CC1=CCC23OC2(C)CCC2C(CN(C)C)C(=O)OC2C13.Cl (centres unmarked) | cell growth or viability, SRB | 8.3 µM | – | inhibition | 58.9%
O=C1Nc2ccccc2/C1=N\Nc1nnc2n1N=C(c1ccc(Cl)cc1)CS2 | cell growth or viability, SRB | 10 µM | – | inhibition | 29%
CCCCCCCCn1c(-c2cccnc2)nc(-c2ccc(C)cc2)c1-c1ccc(C)cc1 | cell growth or viability, SRB | 48 h | – | IC50 | 97.2 µM
CC(=O)OC[C@H]1O[C@@H](Sc2sc(C(=O)c3ccc(C)cc3)c(N)c2-c2nc3ccccc3s2)[C@H](OC(C)=O)[C@@H](OC(C)=O)[C@H]1OC(C)=O | SRB | 10 µM, 48 h | relative to: untreated | growth | 56.2%
COc1ccc(C2=Nn3c(NN=C4C(=O)N(Cc5ccccc5)c5ccc(Cl)cc54)nnc3SC2)cc1 | cell growth or viability, SRB | 10 µM | – | inhibition | 29%
CCC(=C(c1ccc(Cl)cc1)c1ccc(OCCCN(C)C)cc1)c1ccc(OC)cc1 | cell growth or viability, SRB | – | – | GI50 | 3.75 µM
CCCn1c(-c2cccnc2)nc(-c2ccc(C)cc2)c1-c1ccc(C)cc1 | cell growth or viability, SRB | 24 h | – | IC50 | > 100 µM
COc1ccc2c(c1)/C(=N\Nc1nnc3n1N=C(c1ccccc1)CS3)C(=O)N2 | cell growth or viability, SRB | 10 µM | – | inhibition | 47%
CC(=O)OC[C@H]1O[C@@H](Sc2sc(C(=O)c3ccc(Br)cc3)c(N)c2-c2nc3ccccc3s2)[C@H](OC(C)=O)[C@@H](OC(C)=O)[C@H]1OC(C)=O | SRB | 10 µM, 48 h | relative to: untreated | growth | 67.4%
COc1ccc(C2=NN(C3=NC(=O)C(=Cc4ccc(O)cc4)S3)C(c3ccc(F)cc3)C2)cc1 (centres unmarked) | PI flow cytometry | concentration not given, 24 h | – | cells in %Sub-G1 phase | 31.4%
CCN1CCN(Cc2ccc(C(=O)Nc3ccc(C)c(NCc4cnc5[nH]ccc5c4OC)c3)cc2C(F)(F)F)CC1 | cell growth or viability | 48 h | – | GI50 | 1.11 µM
